{"data": "Assay results from different studies", "note": "Each numbered part is a random draw from the data of one study; scales do not carry over between parts. Substitutions count along the parent as printed."}
{"data": "Set 1", "target": "ABI1, truncated, D143A, DHFR fusion (Arabidopsis thaliana)", "technique": "DHFR PCA, deep sequencing", "matrix": "yeast", "notes": "methotrexate growth selection, single substitutions", "together with": "(+)-ABA 0.0091 µM", "reference": "wild-type fitted maximum", "direction": "higher = stronger binding", "starting sequence": "PYL1, truncated, DHFR fusion (Arabidopsis thaliana); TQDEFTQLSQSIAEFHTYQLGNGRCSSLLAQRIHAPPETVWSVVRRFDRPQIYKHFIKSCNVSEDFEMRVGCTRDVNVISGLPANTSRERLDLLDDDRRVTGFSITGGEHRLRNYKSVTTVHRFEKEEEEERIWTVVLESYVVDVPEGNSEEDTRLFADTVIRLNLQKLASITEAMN; partner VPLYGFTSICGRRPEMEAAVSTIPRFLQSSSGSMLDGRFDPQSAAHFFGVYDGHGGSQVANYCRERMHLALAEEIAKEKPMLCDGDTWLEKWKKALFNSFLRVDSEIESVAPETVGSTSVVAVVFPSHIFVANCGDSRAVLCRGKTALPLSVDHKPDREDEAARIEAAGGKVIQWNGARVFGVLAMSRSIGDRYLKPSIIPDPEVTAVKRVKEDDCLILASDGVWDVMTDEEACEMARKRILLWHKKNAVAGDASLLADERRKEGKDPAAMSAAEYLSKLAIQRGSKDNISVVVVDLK"}
{"Substitution": "S26V", "relative binding score [%]": 0.61}
{"Substitution": "Y141I", "relative binding score [%]": -3.11}
{"Substitution": "V43R", "relative binding score [%]": -1.45}
{"Substitution": "G102R", "relative binding score [%]": -0.112}
{"Substitution": "F15Q", "relative binding score [%]": -6.91}
{"Substitution": "V161E", "relative binding score [%]": 1.46}
{"Substitution": "S63W", "relative binding score [%]": -7.55}
{"Substitution": "R32G", "relative binding score [%]": 0.121}
{"Substitution": "V118H", "relative binding score [%]": 4.42}
{"data": "Set 2", "target": "Interferon regulatory factor 5, full length, phosphomimetic (IRF5, Homo sapiens, UniProt Q13568-2, residues 1-514, K96S/S451D/S453D/S456D/S462D)", "technique": "protein-binding microarray", "molecule type": "double-stranded DNA, one strand shown", "matrix": "in vitro", "tested at": "250 nM", "notes": "60-bp whole probe", "together with": "salmon DNA 0.4 mg/ml", "reference": "random background probes", "direction": "higher = stronger binding", "shared flanks, not repeated": "GCCTAGCAC … GTCTTGATTCGCTTGACGCTGCTG"}
{"Sequence": "GACGGTCTCGGACTGGAGACGTGCTAG", "log fluorescence [z-score]": -0.183}
{"Sequence": "GACGATTTCGGGACTGGAGACGTGCTA", "log fluorescence [z-score]": 1.51}
{"Sequence": "TCACATATTTATCTGCAACTGTGCTAG", "log fluorescence [z-score]": 0.646}
{"Sequence": "TTAGGTATCGGTGTCGGTTAGTGCTAG", "log fluorescence [z-score]": 5.72}
{"Sequence": "TCAATTTTTTTTATTTAACTGTGCTAG", "log fluorescence [z-score]": 1.13}
{"Sequence": "GACGGTTTCGGTATCGAGACGTGCTAG", "log fluorescence [z-score]": 9.95}
{"Sequence": "TTCGGTTTCGGACTGGGTTAGTGCTAG", "log fluorescence [z-score]": 6.56}
{"data": "Single results of other studies"}
{"Molecule": "STTRRRLFVENDS", "target": "human cyclin B1", "test": "cyclin docking binding, deep mutational scanning", "system": "peptide, yeast cyclin B1-Cln2 system", "scale": "direction not given", "quantity": "score minus score, wild type", "result": 0}
{"Molecule": "PhoQ, residues 284 288 289 292 302 303 NLALSC", "target": "PhoP, residues 12 14 15 18 19 STWGI (Escherichia coli, UniProt P23836)", "test": "Sort-seq, refers to: YFP reporter", "system": "E. coli", "conditions": "PhoQ-PhoP variant library, together with: 10 µM Mg2+", "scale": "reference: high Mg2+ state, higher = stronger signaling", "quantity": "fold induction", "result": 9.11}
{"note": "Excerpt of the above (set 1):"}
{"Substitution": "R32G", "relative binding score [%]": 0.121}
